# Published values collected from several papers.
# Every numbered part comes from another study and shows a few of its results, in no order.

# Series 1 — method: protein-binding microarray; molecule type: double-stranded DNA, one strand shown; matrix: in vitro; concentration: 2200 nM top; notes: 60-bp whole probe; with: salmon DNA 0.4 mg/ml; reference: random background probes; direction: higher = stronger binding; shared flanks, not repeated: GCCTAGCAC … GTCTTGATTCGCTTGACGCTGCTG
# Target: Interferon regulatory factor 7, full length, phosphomimetic (IRF7, Homo sapiens, UniProt Q92985, residues 1-503, S471D/S472D/S475D/S476D/S477D/S483D/S484D/S487D)
# Construct (chain): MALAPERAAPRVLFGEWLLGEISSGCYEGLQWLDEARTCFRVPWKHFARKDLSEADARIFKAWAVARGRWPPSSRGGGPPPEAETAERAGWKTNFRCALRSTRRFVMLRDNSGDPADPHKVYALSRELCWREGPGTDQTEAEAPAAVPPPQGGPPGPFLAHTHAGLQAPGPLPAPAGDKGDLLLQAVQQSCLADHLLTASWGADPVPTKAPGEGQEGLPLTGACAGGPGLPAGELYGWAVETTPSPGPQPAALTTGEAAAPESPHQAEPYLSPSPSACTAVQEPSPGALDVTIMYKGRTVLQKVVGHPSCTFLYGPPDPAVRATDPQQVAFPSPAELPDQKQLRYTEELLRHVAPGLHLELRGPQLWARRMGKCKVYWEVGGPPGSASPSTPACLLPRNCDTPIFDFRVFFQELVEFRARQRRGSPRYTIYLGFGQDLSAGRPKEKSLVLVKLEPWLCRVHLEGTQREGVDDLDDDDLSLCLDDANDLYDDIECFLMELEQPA
Sequence,fitted relative affinity [z-score]
TTAGTTCTCAGTCTCGATTAGTGCTAG,1.16
TCATACCTGAATATCTTACTGTGCTAG,0.73
TTAGATTTCCTTTCCCTTTAGTGCTAG,4.25
TCACTCCTCCTTCTCTAACTGTGCTAG,2.71
TTTTTTTTTTTTTTGTATTTGTGCTAG,2.36
GACGGTATCGACACCGGGGACGTGCTA,-0.35
TGGAGTCTCTGTTCTTTTCAGTGCTAG,1.25
TTAGAAATCAGTTTCGATTAGTGCTAG,5.08
GACGTTTTCCTTTCCCTGACGTGCTAG,5.09
GACGGTATCGGGTTTCGGAACGTGCTA,2.11
TCATTTTCACTTTTCCTACTGTGCTAG,9.07
ACCACTTTTATTTTCAGTATGTGCTAG,3.65
CTAGGTCTCCTTCTCCTTTAGTGCTAG,1.06
GACGGACTAGGTCTCGGGACGTGCTAG,-0.594
TCATTTCTCCTTTCCAAACTGTGCTAG,3.88
GACGGTATCGGGACTGAGGACGTGCTA,-0.587
GACGAACTGAATTTCGAGACGTGCTAG,0.968
TACGATATCGGGTATCGAGACGTGCTA,0.323
GACGGACTGGGTTTTCGGGACGTGCTA,0.733
TTACGACTGGACACTGGGTTAGTGCTA,0.241
TCAGATATCAGTCTCGATTAGTGCTAG,0.542
GATGGACTGGGGACTGGGGACGTGCTA,-0.502
TTAGATTTCAGACTGGAATAGTGCTAG,-0.228

# Series 2 — method: protein-binding microarray; molecule type: hairpin DNA; matrix: in vitro; concentration: not given; reference: not given; direction: higher = stronger binding
# Target: FOXO3, forkhead domain (mouse, UniProt Q9WVH4, residues 31-263)
# UniProt Q9WVH4, sequence (31-263, looked up): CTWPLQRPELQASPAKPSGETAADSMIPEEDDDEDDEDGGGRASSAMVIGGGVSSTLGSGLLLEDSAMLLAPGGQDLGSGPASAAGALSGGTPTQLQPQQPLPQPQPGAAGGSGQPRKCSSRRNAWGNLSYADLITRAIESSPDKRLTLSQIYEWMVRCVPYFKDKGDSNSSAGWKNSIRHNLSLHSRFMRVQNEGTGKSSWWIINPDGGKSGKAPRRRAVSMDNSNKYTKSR
# Notes: whole hairpin DNA, median over replicate spots
Sequence,median fluorescence
GAGGCCATGTAAACACGGCCTCCTGGCCGTGTTTACATGGCCTCACACTC (5mC at 16 28),4540 a.u.
GAGGCCATGTCGCCAACGCCTCCTGGCGTTGGCGACATGGCCTCACACTC (5mC at 11 33),4550 a.u.
GAGGCCATGCAAACCGCGCCTCCTGGCGCGGTTTGCATGGCCTCACACTC (5mC at 15 29),4820 a.u.
GAGGCCATGTAAACCGCGCCTCCTGGCGCGGTTTACATGGCCTCACACTC,4580 a.u.
GAGGCCATCTAAACAACGCCTCCTGGCGTTGTTTAGATGGCCTCACACTC (5mC at 9),3870 a.u.
GAGGCCATCCAAACAACGCCTCCTGGCGTTGTTTGGATGGCCTCACACTC,4740 a.u.
GAGGCCCGGTAAACAACGCCTCCTGGCGTTGTTTACCGGGCCTCACACTC,6380 a.u.
GAGGCCGTGTAAACAACGCCTCCTGGCGTTGTTTACACGGCCTCACACTC,5240 a.u.
GAGGCCATGCCGACAACGCCTCCTGGCGTTGTCGGCATGGCCTCACACTC,4660 a.u.
GAGGCCATGCAACCAACGCCTCCTGGCGTTGGTTGCATGGCCTCACACTC (5mC at 13),4620 a.u.
GAGGCCCTGTAAACAACGCCTCCTGGCGTTGTTTACAGGGCCTCACACTC (5mC at 7),5460 a.u.
GAGGCCATGTAACCACGGCCTCCTGGCCGTGGTTACATGGCCTCACACTC (5mC at 28),4110 a.u.
GAGGCCATGTAACCACCGCCTCCTGGCGGTGGTTACATGGCCTCACACTC,4400 a.u.
GAGGCCATGTAACCAACGCCTCCTGGCGTTGGTTACATGGCCTCACACTC (5mC at 13),4050 a.u.
GAGGCCATGCAACGAACGCCTCCTGGCGTTCGTTGCATGGCCTCACACTC (5mC at 31),4460 a.u.
GAGGCCATCTAACCAACGCCTCCTGGCGTTGGTTAGATGGCCTCACACTC,3850 a.u.
GAGGCCATGCAAACAACGCCTCCTGGCGTTGTTTGCATGGCCTCACACTC (5mC at 17),4970 a.u.
GAGGCCATGTAGACAACGCCTCCTGGCGTTGTCTACATGGCCTCACACTC,4120 a.u.
GAGGCCATGTATCCAACGCCTCCTGGCGTTGGATACATGGCCTCACACTC,4090 a.u.
GAGGCCATGTAAACGACGCCTCCTGGCGTCGTTTACATGGCCTCACACTC,4330 a.u.
GAGGCCATGTCACCAACGCCTCCTGGCGTTGGTGACATGGCCTCACACTC,4400 a.u.
GAGGCCATGTAACCAGCGCCTCCTGGCGCTGGTTACATGGCCTCACACTC (5mC at 29),4440 a.u.
GAGGCCATGTAACCAACGCCTCCTGGCGTTGGTTACATGGCCTCACACTC (5mC at 14),3980 a.u.
GAGGCCATGTAAACCGCGCCTCCTGGCGCGGTTTACATGGCCTCACACTC (5mC at 29),4520 a.u.
GAGGCCACGTAAACAACGCCTCCTGGCGTTGTTTACGTGGCCTCACACTC (5mC at 36),5170 a.u.

# Series 3 — method: universal PBM; molecule type: double-stranded DNA, one strand shown; matrix: in vitro; concentration: not given; direction: higher = stronger binding
# Target: Sal-like protein 4, full length isoform B (SALL4, Homo sapiens, UniProt Q9UJQ4-2, residues 1-616)
# Notes: 8-mer, flanks averaged, mean of replicates
Sequence,E-score
GTCACCGA,-0.218
GAATTCGA,-0.0319
CGTTTAAC,0.177
AGATGCTC,-0.122
CCAAGAAG,-0.092
CAGCCCTA,-0.174
ACGATTGC,0.0764
AGACAGCT,-0.195
CAGCAAGG,-0.218
ATACTTTA,0.353
GACCCTCC,-0.318
CGTCCAAG,-0.171
CTATCGGA,0.057
CAGAGGGG,-0.373
CCAACGTC,-0.212
CAGCCGAA,-0.152
ACGGTTAA,0.143

# Series 4 — method: protein binding microarray; molecule type: double-stranded DNA, one strand shown; matrix: in vitro; concentration: not given; reference: not given; direction: higher = stronger binding
# Target: Histone acetyltransferase KAT6A, winged helix 2, GST fusion (KAT6A, Homo sapiens, UniProt Q92794, residues 85-181)
# Notes: 8-mer, flanks averaged, mean of 2 arrays, mostly near background
# Target sequence (chain): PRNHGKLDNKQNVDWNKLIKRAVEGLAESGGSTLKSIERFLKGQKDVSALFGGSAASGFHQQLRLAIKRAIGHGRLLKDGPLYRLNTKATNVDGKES
Sequence,E-score
GAACGAGA,-0.0483
CAGGTAGC,-0.00205
AAGTAAGA,-0.119
GTTCAGGA,-0.0883
CGCACCTA,0.0404
GTGCTAGA,-0.0993
TAGCTTCA,-0.0929
ACCTGGCG,0.0964
AGTCAACC,-0.0994
ACTAGGGG,-0.122
CCAGTCGG,0.0941
AGGTTGAA,0.0742
AACACGGT,-0.0386
CTCACAAA,0.0725
ACAACTCC,-0.0579
AGCTCAAT,0.0295
CGTAGATA,-0.116
AGGATTCC,-0.127
CTAACCTA,-0.149
TATGCTCA,0.00709
AGCACTCC,0.0541
AAATGACA,-0.0518
GGAGTGAC,0.0622
CGATCATC,-0.091
GGGGGCCA,0.107

# Series 5 — method: aptamer microarray, sandwich; molecule type: DNA with 2'F-ANA; matrix: in vitro; concentration: 200 nM; with: Cy3 exosite-II aptamer, 400 nM; direction: higher = stronger binding; sequence: GGTTGGTGTGGTTGG
# Target: Prothrombin, mature alpha-thrombin (F2, Homo sapiens, UniProt P00734)
# Notes: whole 15-mer aptamer, many near background
Modification,mean fluorescence intensity [a.u.]
2'F-ANA at 6 8 11 12 15,702
2'F-ANA at 2 3 5 7 9 10 11 12 13 14,81
2'F-ANA at 3 4 5 6 8 10 11 12 13 15,61
2'F-ANA at 1 6 7 9 10 12 13 14 15,82.1
2'F-ANA at 1 2 3 4 5 6 7 9 11 12 13,74.5
2'F-ANA at 3 4 5 6 7 8 11 12 13 14 15,55.4
2'F-ANA at 2 3 5 6 7 8 10 13 15,55.9
2'F-ANA at 1 2 3 6 8 9 13,154
2'F-ANA at 5 6 11 13 15,49.7
2'F-ANA at 1 2 3 7 8 10 11 12,137
2'F-ANA at 5 6 9 10 15,45.1
2'F-ANA at 2 5 8 9 11 12 13,133
2'F-ANA at 2 8 9 12 15,711
2'F-ANA at 2 4 6 9 10 14 15,60.1
2'F-ANA at 2 3 6 10 11 12 13 15,342
2'F-ANA at 1 2 7 11 14,52.8
2'F-ANA at 3 4 5 7 10 11 12 15,63.2
